Published values pooled from the literature.
Each numbered part is a random draw from the data of one study; scales do not carry over between parts.

Sample 1
Cell line: HEK-293T
Effect on: pseudovirus infection
Method: FDA-approved drug library screen
Organism: VSV pseudotyped with SARS-CoV-2 spike
Tested at: 10 µM
Time: 16 h
Relative to: vehicle-treated
Compound | GFP-positive cells [%]
COCCc1ccc(OCC(O)CNC(C)C)cc1 (centres unmarked) | 83.9
CC(=O)OCC1=C(C(=O)O)N2C(=O)[C@@H](NC(=O)Cc3cccs3)[C@H]2SC1 | 86.9
COC(=O)C1=C(C)NC(C)=C(C(=O)OCC(C)C)C1c1ccccc1[N+](=O)[O-] (centres unmarked) | 67.4

Sample 2
Target: Replicase polyprotein 1ab, polymerase (rep, Severe acute respiratory syndrome coronavirus 2, UniProt P0DTD1)
Effect on: enzyme activity
Action: inhibitor
Tested at: 20 µM
SMILES | inhibition [%]
COc1ccc([C@@H]2CC(=O)c3c(O)cc(O[C@@H]4O[C@H](CO[C@@H]5O[C@@H](C)[C@H](O)[C@@H](O)[C@H]5O)[C@@H](O)[C@H](O)[C@H]4O)cc3O2)cc1O | -0.7
O=C(O)c1cc(-c2ccc(F)cc2F)ccc1O | 30.1
CC(C)CC(N)C1(c2ccc(Cl)cc2)CCC1 (centres unmarked) | 0.37
N=C1NC(=O)N2CC12 (centres unmarked) | 6.05
Cc1cccc(-c2[nH]c(C(C)(C)C)nc2-c2ccc3nccnc3c2)n1 | 11.4
Cc1ccc(NC(=O)Nc2cc(C(F)(F)F)ccc2F)cc1Nc1ccc2c(c1)NC(=O)/C2=C\c1ccc[nH]1 | -14.9
Cc1cc([N+](=O)[O-])ccc1NS(=O)(=O)c1cc(Cl)ccc1Cl | -3.46
COc1ccc(-c2cc(=O)c3c(OC)c(OC)c(OC)c(OC)c3o2)cc1OC | 4.77
Nc1nc2c(c(N3CCNCC3)n1)CCC1=C2[C@H]2CCCC[C@H]2O1 | 0.93
CN1CCCC1CCSc1ccc(O)cc1 (centres unmarked) | -6.44
COc1ccc(S(=O)(=O)N(C(C)=O)c2ccccc2/C=C/c2cc[n+]([O-])cc2)cc1 | 2.89
NCCNS(=O)(=O)c1ccc(Cl)c2ccncc12 | 1.63
COc1cc2c(cc1OC)C(c1ccc(N)cc1)=NNC(=O)C2 | 0.41
CN(C)CCOc1ccc(-c2nc(-c3ccncc3)c(-c3ccc4c(c3)CC/C4=N\O)[nH]2)cc1 | -3.77
CCOc1cc2ncc(C#N)c(Nc3ccc(F)c(Cl)c3)c2cc1NC(=O)/C=C/CN(C)C | 0.05

Sample 3
Target: Replicase polyprotein 1ab, main protease (rep, Severe acute respiratory syndrome coronavirus 2, UniProt P0DTD1)
Effect on: enzyme activity
Action: inhibitor
Tested at: 20 µM
Notes: hit confirmation
SMILES | inhibition
c1ccc2sc(SN3CCOCC3)nc2c1 | 99.8%
S=C(OC1CC2CC1C1CCCC21)[S][K] (centres unmarked) | 41.4%
CC1(C)C(/C=C/C=C/C=C/C=C2/N(CCCCS(=O)(=O)O)c3ccc4ccccc4c3C2(C)C)=[N+](CCCCS(=O)(=O)[O-])c2ccc3ccccc3c21 | 60%

Sample 4
Target: RNA binding protein fox-1 homolog 2, RRM domain, GST-SBP tag (RBFOX2, Homo sapiens, UniProt O43251-10, residues 100-194)
Method: RNA Bind-n-Seq
Molecule type: RNA
Sample: in vitro
Tested at: 365 nM
Notes: natural RNA segment, single round, ends assumed
Relative to: no-protein control
Reading: higher = stronger binding
Constant ends, left off below: GGGAGUUCUACAGUCCGACGAUC … UGGAAUUCUCGGGUGCCAA
Target sequence (chain): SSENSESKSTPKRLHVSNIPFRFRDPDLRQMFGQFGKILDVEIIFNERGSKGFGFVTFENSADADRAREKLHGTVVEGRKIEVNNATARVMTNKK
Oligonucleotide | RBNS enrichment (R)
UUCCUAAAAUAGACAGUGGGUAUCGGGCAGCAGUCACUGGGGCUCAAGGGCAGUGAGCAAGAGAAAUGUCUAAAGCUGCUUCUCCCAACACCGUCCAAAGUCUCCACUGC | 0.335
GCCACCUUGGCUUCCAAUAUGGCAAGAGGGUGCUGGGAGAAGGUGAAGAUCAGUCUAAGCUGCCACGGUGAUGAGACCUUCUCAUUAUGUAACUCUUGAUGGCAUUUCCC | 0.892
UCCUACACUGUAUUUUGGCGCAUGUUGGUGGCCCUCUGUGCCCUAGAUAUAUGCACACAGGGUGCAAGUUAAAAGCUACAGAGUGAAAGUUGGUUUGGAUCCUCUUCAUU | 6.85
ACAACUGAAUGCUAUAAAAGUGUUUUGCUGUGUACACAUAAGAUACUGUUCGUUAAAAUAAGCAUUCCCUUGACAGCACAGGAAGAAAAGCGAGGGAAAUGUAUGGAUUA | 1.15
AGUGUAAUAUUGUAUUAAUUUGUUAAAUUCUAAACUUGAAUUUCAAUAAAAUUUUAAAGCUAAUUGUGUUUUUGUGUAACUUUGUGGCCAACUGAUUUUGUAAGUGGUGC | 1.49
AAGUCCUUGUGGUAGCCCUGGGGUAGCCUGUAGUAGACUCGGGUCCUGUCCACAGCCCUAGCUGCCAGCAAUGCUGUCCUCACAGAGGCAUAGUCGCCCCCAGCUGGGUU | 0.362
GAUCACUGAGACAGCCACUUGGUUUUUGGCUCUUUCAGAGAGGUCUCAGGUUCUUUCCAUGCAGACUCCUCAGAUCUGAACACAGUUUAGUGCUUUACAUGCUGUGCUCU | 0.497
CCAGGGACUGUCUACAGCAGCCACAGCCACUGUGCACAAUGGACAGGGUGCCCAGGUCCUCGGAGCUUUGGCUUGGCAUCUUGGGUUCAUUUGAUUUUUUUUUUUAAAGA | 0.388

Sample 5
Target: RING finger protein unkempt homolog, zinc fingers 1-6, SBP tag (UNK, Homo sapiens, UniProt Q9C0B0, residues 30-357)
UniProt Q9C0B0, sequence (30-357, looked up): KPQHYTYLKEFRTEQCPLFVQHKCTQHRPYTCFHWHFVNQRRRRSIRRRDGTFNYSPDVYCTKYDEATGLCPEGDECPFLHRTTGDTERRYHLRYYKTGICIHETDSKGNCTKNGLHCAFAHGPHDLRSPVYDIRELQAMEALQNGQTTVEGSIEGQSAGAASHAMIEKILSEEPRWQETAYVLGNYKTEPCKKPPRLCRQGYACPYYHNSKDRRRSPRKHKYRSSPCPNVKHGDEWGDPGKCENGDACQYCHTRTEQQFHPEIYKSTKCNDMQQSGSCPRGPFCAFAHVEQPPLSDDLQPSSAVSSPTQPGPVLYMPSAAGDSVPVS
Method: RNA Bind-n-Seq
Molecule type: RNA
Sample: in vitro
Tested at: 100 nM
Notes: RNA with constant flanks, vertebrate orthologous sites, ends assumed
Relative to: input RNA pool
Reading: higher = stronger binding
Constant ends, left off below: GGGAGUUCUACAGUCCGACGAUC … CAACAGAGGAUUGAGCAUCA
Oligonucleotide | bound/input enrichment [ratio]
AAAAAACCCCGAUUUUAGAUAUCUAGGCUUUCAUUCCAGUUGUUUUUGUCUUUUCUUGUUUAGAUACCACUUUUAAAUUCUUGCAUUUUAGUAAGAAAGCUACCUUUUUAUGGAUGUUAG | 1.3
UAGGUCAUGACCCAUAUAGAUUAGCCCAGGAUCCCUACAGGUUAGGUCAUGACCCUUACAGGUUGGCUAGCUCCUGAUCCUUAUAGAAUGUCACCCAGGCCAUACAGGAUAGCACCCAGG | 0.453
UUUCUUCUCUUUUUCUUUGUUUCCCUCUUUUCUUUUUUUUUCCUUUUCUUUCUUUUUUUGUAGUUGUUGUUACCCACGCCAUUUUACGUCUCCUUCACUGAAGGGCUAGAGUUUUAACUU | 3.36
GGGCAGCCGGUGGGGGAAUUCCCUGCCUUGGCCUUGCCUCCCCUUCCUGCUACCUGCCCCUAGUUUGUUUUUUUUUUUUAAACCACCAUGUGAUUAAGGUCGGUGUUGCCUCCCCCGACC | 3.06
GAUGCAGUGUAUAAAUUAUCCAAGGCAGUGACUUCAGCUUUAUAUAUAUAUAUAUAUAUAUAGUUAGUUUUAAAAUCAUCUACUUUUAUUUAAACUUCUAGAUUGGAUUGUUUGCUAUUG | 1.77
UGGACCUUGGAGCUGAACUGGGCUGGGGGACUAGAAAAGUAAAAUAAACUUGUAAAAUGAUAGCCAUACGCAGCUGCACAAUAGUACUAUCACAGGCACCUGUGUUAAUGUAUUUAUACA | 0.576
